Assay results of several laboratories.
Each numbered part is a random draw from the data of one study; scales do not carry over between parts. “And” joins repeats or separate records; there may be more than shown.

Series 1 — technique: RNA Bind-n-Seq; form: RNA; matrix: in vitro; tested at: 20 nM; notes: 6-mer, flanks averaged, single round; together with: 150 mM KCl; baseline: input library; reading: higher = stronger binding; measurement: 6-mer enrichment (R)
Target: TAR DNA-binding protein 43, full length, His tag (TARDBP, Homo sapiens, UniProt Q13148, residues 1-414)
Oligonucleotide = ACUAAU; value = 0.663
Oligonucleotide = CUCAGU; value = 0.625
Oligonucleotide = GGGUUG; value = 3.54
Oligonucleotide = GGUCCC; value = 0.857
Oligonucleotide = UGCAUG; value = 1.11
Oligonucleotide = GUAUAC; value = 0.653
Oligonucleotide = GAUCCG; value = 0.854
Oligonucleotide = GUGUGC; value = 1.71

Series 2 — mode: inhibitor; tested at: 20 µM; measurement: inhibition
Target: Replicase polyprotein 1ab, nsp13 helicase (rep, Severe acute respiratory syndrome coronavirus 2, UniProt P0DTD1)
Structure (SMILES) = NS(=O)(=O)c1ccc2c(c1)C1C=CCC1C(c1ccc(Br)cc1)N2 (centres unmarked); value = 15.9%
Structure (SMILES) = O=c1[nH]c2ccccc2n1CCN1CCN(c2cccc(C(F)(F)F)c2)CC1; value = 2.85%
Structure (SMILES) = O=C(c1ccc(Nc2nccc(-c3cc4ccccc4s3)n2)cc1)N1CCC(N2CCCC2)CC1; value = 71.5%
Structure (SMILES) = CC(C)=CCC[C@](C)(O)[C@H]1CC[C@]2(C)[C@@H]1[C@H](O)C[C@@H]1[C@@]3(C)CC[C@H](O)C(C)(C)[C@@H]3CC[C@]12C; value = 1.06%
Structure (SMILES) = CC(C)(C)c1ccc(S(=O)(=O)Nc2ccc(Cl)cc2C(=O)c2cc[n+]([O-])cc2)cc1; value = 2.89%
Structure (SMILES) = CCCC(C)(COC(N)=O)COC(=O)NC(C)C (centres unmarked); value = 3.91%
Structure (SMILES) = O=C(CCCN1CCC2(CC1)C(=O)N(Cc1cccc(F)c1)CN2c1ccccc1)c1ccc(F)cc1; value = 7.3%
Structure (SMILES) = CN1C[C@H](C(=O)N[C@]2(C)O[C@@]3(O)[C@@H]4CCCN4C(=O)[C@H](Cc4ccccc4)N3C2=O)C[C@@H]2c3cccc4[nH]cc(c34)C[C@H]21; value = 1.7%
Structure (SMILES) = Cc1[nH]c(/C=C2\C(=O)Nc3ccc(S(=O)(=O)N(C)c4cccc(Cl)c4)cc32)c(C)c1C(=O)N1CCN(C)CC1; value = 4.62%
Structure (SMILES) = CCOc1nc2cccc(C(=O)OC(C)OC(=O)OC3CCCCC3)c2n1Cc1ccc(-c2ccccc2-c2nn[nH]n2)cc1 (centres unmarked); value = 17.7%
Structure (SMILES) = O=c1ccc2cc(O[C@@H]3O[C@H](CO)[C@@H](O)[C@H](O)[C@H]3O)c(O)cc2o1; value = 11%
Structure (SMILES) = N=C1NC(=O)N2CC12 (centres unmarked); value = 4.69%
Structure (SMILES) = CCc1oc2ccccc2c1C(=O)c1cc(Br)c(O)c(Br)c1; value = 0.1%
Structure (SMILES) = CC(=O)O[C@H]1C[C@H](O[C@H]2[C@@H](O)C[C@H](O[C@H]3[C@@H](O)C[C@H](O[C@H]4CC[C@@]5(C)[C@H](CC[C@@H]6[C@@H]5C[C@@H](O)[C@]5(C)[C@@H](C7=CC(=O)OC7)CC[C@]65O)C4)O[C@@H]3C)O[C@@H]2C)O[C@H](C)[C@H]1O[C@@H]1O[C@H](CO)[C@@H](O)[C@H](O)[C@H]1O; value = 6.63%
Structure (SMILES) = C[C@H](N)Cc1cnc[nH]1; value = -0.71%
Structure (SMILES) = Cc1ccccc1N1CCN(S(=O)(=O)C[C@]23CC[C@H](C[C@@H]2NC(=O)[C@@H](N)CCS(C)(=O)=O)C3(C)C)CC1; value = 0.3%
Structure (SMILES) = CCC1(c2ncc[nH]2)Cc2ccccc2O1 (centres unmarked); value = 2.79%
Structure (SMILES) = CCOC(=O)C(=O)Nc1cccc(OC)c1C(N)=O; value = 6.87%
Structure (SMILES) = Cn1ccc2cc3c(cc21)CCN3C(=O)Nc1cccnc1; value = 1.6%
Structure (SMILES) = COc1ccc(CCC(=O)Nc2nc3ccc(Cl)cc3s2)cc1OC; value = 0.82%
Structure (SMILES) = O=C1C[C@@H]2OCC=C3CN4CC[C@]56c7ccccc7N1[C@H]5[C@H]2[C@H]3C[C@H]46; value = -1.98%
Structure (SMILES) = Cc1ccc(N(CC2=NCCN2)c2cccc(O)c2)cc1; value = -0.02%
Structure (SMILES) = O=C(Nc1cccc(Cl)c1)c1ccccn1; value = 6.72%
Structure (SMILES) = CN(C)CCCN1c2ccccc2Sc2ccccc21; value = -0.55%
Structure (SMILES) = O=c1[nH]c2ccccc2n1C1CCN(CCOc2ccccc2)CC1; value = -5.01%

Series 3 — effect on: enzyme activity; mode: inhibitor; tested at: 20 µM; notes: hit confirmation; measurement: inhibition
Target: Replicase polyprotein 1ab, main protease (rep, Severe acute respiratory syndrome coronavirus 2, UniProt P0DTD1)
SMILES = CO[C@H]1C([C@@]2(C)O[C@@H]2CC=C(C)C)[C@]2(CC[C@H]1OC(=O)/C=C/C=C/C=C/C=C/C(=O)O)CO2 (some centres unmarked); value = 37.5%
SMILES = COc1oc(=O)c2cc(N)ccc2c1Cl; value = 32.6%
SMILES = C[C@@H]1O[C@@H](O[C@@H]2[C@@H](O)[C@H](OCCc3ccc(O)c(O)c3)O[C@H](CO)[C@H]2OC(=O)/C=C/c2ccc(O)c(O)c2)[C@H](O)[C@H](O)[C@H]1O; value = 95.4%
SMILES = CCC[C@H](NC(=O)[C@@H]1[C@H]2CCC[C@H]2CN1C(=O)[C@@H](NC(=O)[C@@H](NC(=O)c1cnccn1)C1CCCCC1)C(C)(C)C)C(=O)C(=O)NC1CC1; value = 54.5% and 27% and 35.6%

Series 4 — technique: RNAcompete; form: RNA; matrix: in vitro; tested at: 20 nM; notes: 7-mer, probes averaged, single round; baseline: mean of 7-mers; reading: higher = stronger binding; measurement: 7-mer Z-score
Target: PABPC1L2, full length, GST fusion (mouse, UniProt A0ABA7IW68)
Target sequence (chain): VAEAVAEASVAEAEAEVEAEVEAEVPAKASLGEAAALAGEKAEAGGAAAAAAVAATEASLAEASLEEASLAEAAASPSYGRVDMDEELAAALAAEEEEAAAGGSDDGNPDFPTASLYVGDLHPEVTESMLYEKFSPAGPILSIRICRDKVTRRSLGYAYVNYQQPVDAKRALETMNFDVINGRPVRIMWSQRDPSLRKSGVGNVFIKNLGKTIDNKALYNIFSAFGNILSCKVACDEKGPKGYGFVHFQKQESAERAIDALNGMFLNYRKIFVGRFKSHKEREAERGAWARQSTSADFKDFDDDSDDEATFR
Oligonucleotide = AGGUGGG; value = 0.428
Oligonucleotide = CUCGCAC; value = -0.344
Oligonucleotide = AAGCAAC; value = 0.166
Oligonucleotide = GUCCAUC; value = -0.296
Oligonucleotide = UGGCCGA; value = -0.0736
Oligonucleotide = CUAGCGG; value = -0.0518
Oligonucleotide = AUCAUAU; value = -0.0319
Oligonucleotide = CCAACGA; value = 0.0841

Series 5 — cell line: HEK-293T; effect on: pseudovirus infection; technique: FDA-approved drug library screen; organism: VSV pseudotyped with SARS-CoV-2 spike; tested at: 10 µM; time: 16 h; baseline: vehicle-treated; measurement: GFP-positive cells
Compound = CCCCC(=O)O[C@]1(C(=O)CO)[C@@H](C)C[C@H]2[C@@H]3CCC4=CC(=O)C=C[C@]4(C)[C@@]3(F)[C@@H](O)C[C@@]21C; value = 74.8%
Compound = CCC1=C(C)CN(C(=O)NCCc2ccc(S(=O)(=O)NC(=O)N[C@H]3CC[C@H](C)CC3)cc2)C1=O; value = 83%
Compound = CC(C)(C)NCC(O)COc1cccc2c1CCC(=O)N2 (centres unmarked); value = 78.7%
Compound = COc1ccccc1OCC(O)COC(N)=O (centres unmarked); value = 100%
Compound = COCCCC/C(=N\OCCN)c1ccc(C(F)(F)F)cc1; value = 55.9%

Excerpt of the above (series 4):
Oligonucleotide = CUCGCAC; value = -0.344
Oligonucleotide = AAGCAAC; value = 0.166
Oligonucleotide = GUCCAUC; value = -0.296
Oligonucleotide = UGGCCGA; value = -0.0736
Oligonucleotide = CUAGCGG; value = -0.0518
Oligonucleotide = AUCAUAU; value = -0.0319
Oligonucleotide = CCAACGA; value = 0.0841
